Measurements gathered from unrelated publications.
A part holds a random share of what one study measured.

Set 1
Target: RNA binding protein fox-1 homolog 2, RRM domain, GST-SBP tag (RBFOX2, Homo sapiens, UniProt O43251-10, residues 100-194)
Technique: RNA Bind-n-Seq
Form: RNA
Sample: in vitro
Concentration: 365 nM
Notes: natural RNA segment, single round, ends assumed
Baseline: no-protein control
Direction: higher = stronger binding
Target sequence (chain): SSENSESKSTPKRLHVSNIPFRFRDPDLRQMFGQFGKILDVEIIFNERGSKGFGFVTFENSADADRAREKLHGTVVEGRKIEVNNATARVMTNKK
For `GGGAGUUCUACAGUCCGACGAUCAAGAGGAGUAACCAGAGGACACACUUCCUUCCUUCUUUGGUGUCUGAGGAGUGUGAACUGUUGGGGUCAGUUAAGACCCAACAUAACUCUAUCAGAAGAAAACUGUUGUUUGGAAUUCUCGGGUGCCAA`, “RBNS enrichment (R)” read 0.405.
`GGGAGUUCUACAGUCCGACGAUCAGUAGCAACAACAAGAUCACAUGGGUGGGGACCCUAGGUCCGGUGGCCAGCUUAUGGCAGGAGCAAAGUCAGUCCCCCUUUCAGAGCCUCAGGAAGCUUGGAACACCUCAUGGAAUUCUCGGGUGCCAA`: “RBNS enrichment (R)” 0.387.
For `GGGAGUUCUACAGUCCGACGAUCUCUUGGCGUUUUGCAACCCAUGCUGGCCUCCCUCCUGCAGAUGGCAUAGGAGUCCGUCUGUCUUUGGACUGUCUCCUCUGCUGUUGUUCCUGCUCUCUCCGUUUCUGUCUUGGAAUUCUCGGGUGCCAA`, “RBNS enrichment (R)” read 0.786.
Under “RBNS enrichment (R)”, `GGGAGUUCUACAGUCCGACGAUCCUGACAUGAUUUGAGAAGCUGCACACAUAGGCAGAGUCAUUUUCCUGUUUACAUUGUUUGUUUGGGGAAGAUUGGUAGGGGUCUAAUUACUGUUCACUUCCUUGUUGUAUUGGAAUUCUCGGGUGCCAA` is recorded as 0.614.
`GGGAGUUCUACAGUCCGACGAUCCUGCAACUCCAAACCCAGACUCGCCACUUUGGGUGCACAGGUGGUUAGGUCAGCCAACUGGUUCUGCCUGUCGCCUUGCCACGGAGGAGGCUUCUAAUUAGCUGGAAAAGUGGAAUUCUCGGGUGCCAA`: “RBNS enrichment (R)” 0.278.
`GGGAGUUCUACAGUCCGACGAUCGGGAUUCCCGUGUCAAGCCAGUGAGGGUCUUAGAAAGAAGGACGGGUGUGUCCCAAGGGCACUUGACUCCCGUUUGUGCUUGAGUAUCAGGAAUACCAAAGGGCCCAGGGUGGAAUUCUCGGGUGCCAA` — result for “RBNS enrichment (R)”: 0.506.
`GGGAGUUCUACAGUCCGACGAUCCCAAAACACUGCUUGUGAGAAGGAAGAUGGAAGGUAAGUUCUGUCGUUCUUUCCCCAAUCCCCAGGAAUGGACAAGAAGCCAACUUAGAAAGAAGGGUCUCACGUGGCUGUGGAAUUCUCGGGUGCCAA` — result for “RBNS enrichment (R)”: 0.352.
Under “RBNS enrichment (R)”, `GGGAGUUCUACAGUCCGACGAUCCUCUCUUUGCCUCCACUUUACAAAAGAUAAUAUGAUAGAGGCAACGUUUAUAACAGUCACAUUUAAUUAUAAUGUACAUCAAAGGCAGAAUUUCAGAAUGGUUUCUUAAAUGGAAUUCUCGGGUGCCAA` is recorded as 0.67.

Set 2
Target: RING finger protein unkempt homolog, zinc fingers 1-6, GST-SBP tag (UNK, Homo sapiens, UniProt Q9C0B0, residues 30-357)
Sequence of UniProt Q9C0B0 (30-357, looked up): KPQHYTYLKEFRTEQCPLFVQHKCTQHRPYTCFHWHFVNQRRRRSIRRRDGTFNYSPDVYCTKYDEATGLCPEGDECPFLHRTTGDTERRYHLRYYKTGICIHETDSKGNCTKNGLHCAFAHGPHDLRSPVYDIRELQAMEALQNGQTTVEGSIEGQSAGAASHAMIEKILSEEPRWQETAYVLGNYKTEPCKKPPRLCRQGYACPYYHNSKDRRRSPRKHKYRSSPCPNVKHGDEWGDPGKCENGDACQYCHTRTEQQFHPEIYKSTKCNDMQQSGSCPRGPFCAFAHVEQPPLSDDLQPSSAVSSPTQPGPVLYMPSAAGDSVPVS
Technique: RNA Bind-n-Seq
Form: RNA
Sample: in vitro
Concentration: not given
Notes: RNA with constant flanks, ends assumed
Baseline: input RNA pool
Direction: higher = stronger binding
`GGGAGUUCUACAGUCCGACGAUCUAUAGUGUAAUAUAUAUAUAAUAGCUCUAAUUAUAAAUACACUUUUACUCUGGAAAAAGCACCGACAUUGACAUAAGAGACAUUUAAAAACCAUUAUUUUCUCAUCUGUAAAAUGGAGAGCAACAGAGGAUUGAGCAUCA` gave a bound/input enrichment of 1.42 ratio.
For `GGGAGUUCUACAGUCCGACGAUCCUCAGGUGUAAAAGCCACACGAAGAAAUGAGCUGUAAGCGGUGGCAUCACUUUGGAUACUCCGUUUAAAAGUAUAUGUGUGAUUUUCUAUGUUCCAAAACUAUCAUGAGUUUUUUGGCCCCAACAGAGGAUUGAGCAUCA`, the bound/input enrichment was 0.138 ratio.
`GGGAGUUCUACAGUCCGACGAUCCAUGUAGUUUGUUUUUAAUUUCAAGCAAAAUCUUACUGUACUUGAAUGUGCCCUGUUUUGUCCGCACACCUAGACUUGCUGUAACUGUACUCAUGUCCCAGUAUGUACGUUCUUUCUAUGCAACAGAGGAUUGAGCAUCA` has a bound/input enrichment of 7.25 ratio.
With `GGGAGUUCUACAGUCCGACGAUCCGUGGAGAUACAGACCAGGCCAGUAAUAUUUUGGCCAGCUUUGGUCUGUCUGCUAGAGACUCCGAUGAACUGAGUCGCUAUCCAGAGGACAAGAUUACUCCUGAGAACUUGCCCCAAAUUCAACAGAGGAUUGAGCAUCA` the bound/input enrichment was 0.108 ratio.
`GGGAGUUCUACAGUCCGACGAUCGUUACUAUUUCUACAUGUUGUCCAUGAUGUGACUUUCGUAAACCUUCAAAAUUAUUUGGGCACCGUGCUCUAUGUUUAAUAAAGGUUUUUAUAGAUGUUUUAUUCCAUAUGUCUUCACAACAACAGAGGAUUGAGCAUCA` has a bound/input enrichment of 0.193 ratio.

Set 3
Target: Phosphate system positive regulatory protein PHO4, full length, GST-tagged (PHO4, Saccharomyces cerevisiae, UniProt P07270, residues 1-312)
Technique: competition protein-binding microarray
Form: double-stranded DNA, one strand shown
Sample: in vitro
Concentration: 2 µM
Notes: whole 60-bp probe, lowest competitor level
Together with: Cbf1 competitor, 0.05 µM
Direction: higher = stronger binding
Residues (chain): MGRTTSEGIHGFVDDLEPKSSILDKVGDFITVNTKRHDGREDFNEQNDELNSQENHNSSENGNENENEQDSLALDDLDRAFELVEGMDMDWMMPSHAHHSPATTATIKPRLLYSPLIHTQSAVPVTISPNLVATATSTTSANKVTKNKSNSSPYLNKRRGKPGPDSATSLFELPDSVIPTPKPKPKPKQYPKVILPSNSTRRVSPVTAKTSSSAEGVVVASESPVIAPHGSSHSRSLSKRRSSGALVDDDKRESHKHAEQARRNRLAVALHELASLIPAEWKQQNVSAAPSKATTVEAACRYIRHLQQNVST
With `ACTATTAATATATTTTCATATAATTAGTATAATCTCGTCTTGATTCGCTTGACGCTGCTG` the fluorescence intensity was 3930 a.u.
`GATTGGTTAAAATTGATCATGACAGACGTCTCATCCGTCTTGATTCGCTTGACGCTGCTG` has a fluorescence intensity of 3360 a.u.
`CCAAAACTGACAACCGGCGTGCGGATATGCGGAAGAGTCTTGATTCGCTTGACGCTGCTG` has a fluorescence intensity of 7860 a.u.
The fluorescence intensity of `TTAGAGTAGGGAGAGAATGTGACGAAGCCCTTTGTGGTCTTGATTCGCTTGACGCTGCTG` is reported as 4750 a.u.
`TGCGCAACAACTTGTCACTGTACTTTATGTCTAGAAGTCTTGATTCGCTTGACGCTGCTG` has a fluorescence intensity of 2940 a.u.
With `CATACCCAACCTTGTCACCGAACTTAAGATATTTGTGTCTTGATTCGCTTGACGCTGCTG` the fluorescence intensity was 3310 a.u.
`ACCTAGAAATCGAGTCACGTGACGAAAATAAACAAGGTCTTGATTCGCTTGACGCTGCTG` has a fluorescence intensity of 14200 a.u.
With `GCTCATAAAACCATGCGCGTGTTTTTCTTCCACGGCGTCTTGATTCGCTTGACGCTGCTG` the fluorescence intensity was 10000 a.u.

Set 4
Target: Replicase polyprotein 1ab, main protease (rep, Severe acute respiratory syndrome coronavirus 2, UniProt P0DTD1)
Observed: enzyme activity
Mode: inhibitor
Concentration: 20 µM
Notes: primary screen
The inhibition of CN[C@H]1C(=O)N[C@@H]2Cc3ccc(cc3)Oc3cc4cc(c3O[C@@H]3O[C@H](C(=O)O)[C@@H](O)[C@H](O)[C@H]3NC(=O)CCCCCCCCC(C)C)Oc3ccc(cc3Cl)[C@@H](O)[C@@H]3NC(=O)[C@H](NC(=O)[C@@H]4NC(=O)[C@@H](NC2=O)c2cc(cc(O)c2Cl)Oc2cc1ccc2O)c1ccc(O)c(c1)-c1c(O[C@H]2O[C@H](CO)[C@@H](O)[C@H](O)[C@@H]2O)cc(O)cc1[C@@H](C(=O)NCCCN(C)C)NC3=O is reported as 44.4%.
Cc1ccc(S(=O)(=O)c2ccc([N+](=O)[O-])o2)cc1 has an inhibition of 65.7%.
For CCN(CC)C(=S)SSC(=S)N(CC)CC, the inhibition was 99.7%.
The inhibition of CN(C)CCCCC(=O)Nc1ccc(NC(=S)NC(=O)c2ccc(C(C)(C)C)cc2)cc1 is reported as 32.9%.

Set 5
Target: Replicase polyprotein 1ab, polymerase (rep, Severe acute respiratory syndrome coronavirus 2, UniProt P0DTD1)
Observed: enzyme activity
Mode: inhibitor
Concentration: 20 µM
O=C1CC[C@@H](C(=O)N2CSC[C@H]2C(=O)O)N1 has an inhibition of 1.31%.
CN1[C@@H]2CC[C@H]1CC(OC(=O)N1Cc3ccccc3NC1=O)C2 (stereo partly shown) gave an inhibition of -2.22%.
O=C(COc1ccc(C(=O)c2ccccc2)cc1)NC1CCN(Cc2ccccc2)CC1 has an inhibition of -4.47%.
With CCC(=O)NC[C@@H]1C[C@H]1c1cccc2c1CCO2 the inhibition was 0.34%.
For O=C(NC(O)C(Cl)(Cl)Cl)NC(O)C(Cl)(Cl)Cl (stereo not shown), the inhibition was 1.06%.
COc1ccc2c(NC(=O)Nc3cccc(C(F)(F)F)n3)ccnc2c1 has an inhibition of 0.71%.
COCCCC/C(=N\OCCN)c1ccc(C(F)(F)F)cc1 has an inhibition of -0.67%.
With C=CC(=O)Nc1cc(Nc2nccc(-c3cn(C)c4ccccc34)n2)c(OC)cc1N(C)CCN(C)C the inhibition was 15.8%.
With Cc1nnc(C[C@@H]2C=C(c3ccc(Cl)cc3)c3ccccc3-n3c(C)nnc32)o1 the inhibition was -4.46%.
COc1cc2c(cc1OC)-c1cc3ccc(OC)c(OC)c3c[n+]1CC2 gave an inhibition of -6.2%.
CC[C@H](CO)Nc1nc(Nc2cccc(-c3ccccn3)c2)c2ncn(C(C)C)c2n1 has an inhibition of 4.85%.
For Cc1csc(NC(=O)CSc2ccc(-c3ccccc3)nn2)n1, the inhibition was 0.86%.
Cn1cncc1[C@@](N)(c1ccc(Cl)cc1)c1ccc2c(c1)c(-c1cccc(Cl)c1)cc(=O)n2C has an inhibition of 1.84%.
O=C(CCN1CCN(C(=O)OCc2cc(Cl)cc(Cl)c2)CC1)c1ccc2[nH]c(=O)oc2c1 gave an inhibition of -4.25%.
For CNC(=O)c1c(-c2ccc(F)cc2)oc2cc(N(CCO)S(C)(=O)=O)c(C3CC3)cc12, the inhibition was -1.7%.
The inhibition of COc1ccc(Cl)cc1[C@]1(F)C(=O)Nc2cc(C(F)(F)F)ccc21 is reported as 5.66%.
O=C(NCc1ccc(F)cc1)N1CCN2C(=O)OC(c3ccccc3)(c3ccccc3)C2C1 (stereo not shown) has an inhibition of -4.76%.
Cn1cc([S+](C)[O-])c(=O)c2ccc(F)cc21 (stereo not shown) gave an inhibition of -0.78%.
The inhibition of C[C@H]1[C@@H](O)O[C@@H]2O[C@@]3(C)CC[C@H]4[C@H](C)CC[C@@H]1[C@@]24OO3 is reported as 1.55%.
CCC(NC(C)C)C(O)c1ccc(O)c(O)c1 (stereo not shown) has an inhibition of -6.57%.
O=C(NCCN1CCC2(CC1)C(=O)NCN2c1cccc(F)c1)c1ccc(F)c(F)c1 gave an inhibition of -1.23%.
With O=C(O)C(O)Cc1ccc(O)c(O)c1 (stereo not shown) the inhibition was 17.7%.
O=C(Nc1ncc(SCCN2CCCC2)s1)[C@]1(c2ccc(S(=O)(=O)C3CC3)cc2)C[C@H]1C1CCCCC1 has an inhibition of -2.07%.
For COc1ccccc1C(=O)Nc1cccc(NC(=O)c2cccc(C)c2)c1, the inhibition was -2.42%.
For C=CCc1ccccc1OCC(O)CNC(C)C (stereo not shown), the inhibition was 4.12%.

Set 6
Target: Transcriptional repressor CTCF (CTCF, Homo sapiens, UniProt P49711, residues 1-727, full length assumed)
Sequence of UniProt P49711 (whole entry, looked up): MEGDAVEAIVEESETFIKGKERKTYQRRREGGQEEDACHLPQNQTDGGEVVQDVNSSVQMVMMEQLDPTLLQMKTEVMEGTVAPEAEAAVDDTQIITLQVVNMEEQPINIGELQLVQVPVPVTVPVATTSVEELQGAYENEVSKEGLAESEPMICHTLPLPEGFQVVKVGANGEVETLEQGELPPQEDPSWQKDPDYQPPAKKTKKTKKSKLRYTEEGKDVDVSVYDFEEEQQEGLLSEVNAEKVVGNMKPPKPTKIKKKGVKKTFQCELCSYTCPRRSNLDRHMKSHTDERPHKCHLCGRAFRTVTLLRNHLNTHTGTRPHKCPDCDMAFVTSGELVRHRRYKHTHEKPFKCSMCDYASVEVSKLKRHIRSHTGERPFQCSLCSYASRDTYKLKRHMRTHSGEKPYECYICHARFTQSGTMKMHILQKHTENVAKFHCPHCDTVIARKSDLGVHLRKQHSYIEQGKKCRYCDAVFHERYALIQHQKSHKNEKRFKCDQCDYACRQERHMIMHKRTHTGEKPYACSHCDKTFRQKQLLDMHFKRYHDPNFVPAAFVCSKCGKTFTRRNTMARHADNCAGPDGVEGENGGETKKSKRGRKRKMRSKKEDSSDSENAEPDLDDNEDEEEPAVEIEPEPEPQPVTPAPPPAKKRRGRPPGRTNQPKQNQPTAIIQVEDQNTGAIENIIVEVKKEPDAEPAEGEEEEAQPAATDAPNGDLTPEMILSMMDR
Technique: protein-binding microarray
Form: double-stranded DNA, one strand shown
Sample: in vitro
Concentration: not given
Notes: k-mer, scored over probes, only values ≥0.25
Direction: higher = stronger binding
With `AATGAATG` the E-score was 0.284.
The E-score of `GGTATTAC` is reported as 0.281.
`ATTAAACA` has an E-score of 0.299.
For `ATTTTTAA`, the E-score was 0.299.

Further values, each from its own experiment
For C[C@H]1O[C@@H](O[C@H]2[C@@H](O)C[C@H](O[C@H]3[C@@H](O)C[C@H](O[C@H]4CC[C@@]5(C)[C@H](CC[C@@H]6[C@@H]5CC[C@]5(C)[C@@H](C7=CC(=O)OC7)CC[C@]65O)C4)O[C@@H]3C)O[C@@H]2C)C[C@H](O)[C@@H]1O, the GFP-positive cells was 0.05% (HEK-293T; pseudovirus infection, FDA-approved drug library counter-screen; VSV pseudotyped with VSV-G; 10 µM, 16 h; baseline: vehicle-treated).

A few entries again (set 5):
With Cc1nnc(C[C@@H]2C=C(c3ccc(Cl)cc3)c3ccccc3-n3c(C)nnc32)o1 the inhibition was -4.46%.
COc1cc2c(cc1OC)-c1cc3ccc(OC)c(OC)c3c[n+]1CC2 gave an inhibition of -6.2%.
CC[C@H](CO)Nc1nc(Nc2cccc(-c3ccccn3)c2)c2ncn(C(C)C)c2n1 has an inhibition of 4.85%.
For Cc1csc(NC(=O)CSc2ccc(-c3ccccc3)nn2)n1, the inhibition was 0.86%.
